Published values collected from several papers.
Protocols differ between the studies behind these lines. “And” joins repeats or separate records; there may be more than shown. Numbers after ± are the reported error.
HTR6: 5-hydroxytryptamine receptor 6 (HTR6, Homo sapiens, UniProt P50406)
NT5E membrane-bound form: 5'-nucleotidase, membrane-bound form (NT5E, Homo sapiens, UniProt P21589)
ADORA2A: Adenosine receptor A2a (ADORA2A, Homo sapiens, UniProt P29274)
SIRT5: NAD-dependent protein deacylase sirtuin-5, mitochondrial (SIRT5, Homo sapiens, UniProt Q9NXA8)
ULK1: Serine/threonine-protein kinase ULK1 (ULK1, Homo sapiens, UniProt O75385)
CSNK1E: Casein kinase I isoform epsilon (CSNK1E, Homo sapiens, UniProt P49674)

SMILES	target or system	test	test system	setting	scale	measurement	value
O=C(CN1CCO[C@@H](COc2ccccn2)C1)N1CCc2ccccc21	HTR6	radioligand binding	–	concentration not given, added: [3H]LSD	–	inhibition	-19.2%
Cc1cccc(NC(=O)CSc2nc(C)cc(-c3ccccc3)c2C#N)n1	NT5E membrane-bound form	CD73 activity, inhibitor, malachite green phosphate	MDA-MB-231	100 µM, added: 200 µM AMP	–	inhibition	27 ± 9%
Cc1cc(F)cc2c(CCC(=O)N[C@@H]3C(=O)NC[C@H]3O)c(-c3ccc(F)cc3)[nH]c12	phosphodiesterase 3	enzyme activity	–	10 µM	–	inhibition	-8%
Cc1cccc(C(=O)Nc2nc3ccccc3[nH]2)c1	ADORA2A	–	–	30 µM	–	inhibition	6 ± 3%
COc1cc(-c2cc(C(C)=O)n3ccccc23)cc(OC)c1Cn1ccnc1	BAZ2B (Homo sapiens, UniProt Q9UIF8)	binding, inhibitor, AlphaScreen	–	1 µM	–	inhibition	-41.3%
Cc1ccc(C(=O)Nc2ccc3ccccc3c2)o1	KCNJ2 (Homo sapiens, UniProt P63252)	ion current, whole-cell patch-clamp	–	10 µM, hKir2.1	–	inhibition	4.76%
Cc1cc(C)c2c(N)c(C(=O)NCc3ccccc3)sc2n1	NT5E membrane-bound form	CD73 activity, inhibitor, malachite green phosphate	MDA-MB-231	100 µM, added: 200 µM AMP	–	inhibition	5 ± 6%
O=C(O)/C(=C/c1c(C(=O)O)[nH]c2cc(Cl)cc(Cl)c12)c1ccccc1	Grin1 (Rattus norvegicus, UniProt P35439)	binding	–	1 × 10 µM	–	inhibition	99.3%
CCCCNC(=S)NCCCC[C@H](NS(=O)(=O)c1cccc(F)c1)C(=O)N[C@@H](Cc1c[nH]c2ccccc12)C(=O)NC1CCC1	SIRT5	enzyme activity, inhibitor	–	100 µM	–	inhibition	< 0%
Nc1c(C(=O)Nc2cccnc2)sc2nc(-c3ccccc3)cc(C(F)(F)F)c12	NT5E membrane-bound form	CD73 activity, inhibitor, malachite green phosphate	MDA-MB-231	100 µM, added: 200 µM AMP	–	inhibition	20 ± 3%
Cc1cc2c(cc1N1C(=O)c3cccc4c(CCCO)ccc(c34)C1=O)n(C)c(=O)n2C (racemic)	CECR2 (Homo sapiens, UniProt Q9BXF3)	binding, BROMOscan binding	–	100 nM	–	inhibition	74%
CC(C)c1noc2ncc(C(=O)c3ccccc3O)cc12	PACC1 (Homo sapiens, UniProt Q9H813)	ion current, whole-cell patch-clamp	–	10 µM	–	inhibition	1.79%
Cc1nn(-c2nc3ccccc3s2)c(O)c1C(c1ccccc1C(=O)O)c1c(C)nn(-c2nc3ccccc3s2)c1O	Cyclic GMP-AMP synthase, catalytic domain; with DNA (CGAS, Homo sapiens, UniProt Q8N884)	cGAS phase separation, inhibitor	–	1.25 µM	–	inhibition	96.9%
CC[C@@H]1[C@H](F)C(=O)N[C@@H]1COc1nccc2cc(C(N)=O)c(OC)cc12	ULK1	ATP-site probe binding, ActivX profiling	THP-1 cell lysate	0.04 mM, Lys1 site	–	inhibition	4.1%
COc1nc(NCc2cn(-c3ccc(C(=O)Nc4ccc(C(F)(F)F)cc4)cc3)nn2)nc(OC)n1	Collagenase 3 (MMP13, Homo sapiens, UniProt P45452)	inhibitor	–	0.1 µM	–	inhibition	21.9 ± 0.786%
CC/C(=N\NC(=O)NCc1cccc(O)c1)c1ccc(O)c(C)c1O	MAP3K3 (Homo sapiens, UniProt Q99759)	kinase activity	–	0.1 µM	–	inhibition	3.7%
NC/C(=C\F)COc1cccc(Cn2c(=S)[nH]c(=O)c3[nH]cnc32)c1	Amine oxidase copper-containing 3 (Canis lupus familiaris, UniProt A0A8I3MYY3)	inhibitor	dog adipose tissue	0.0014 µM	–	inhibition	31.7%
CCOC(=O)c1ccc(NC(=O)c2sc3nc(C)cc(-c4ccccc4)c3c2N)cc1	NT5E membrane-bound form	CD73 activity, inhibitor, malachite green phosphate	MDA-MB-231	100 µM, added: 200 µM AMP	–	inhibition	32 ± 5%
Fc1ccc(-c2c(-c3ccncc3)ncn2-c2ccccc2)cc1	CSNK1E	inhibitor	–	1 µM	–	inhibition	20%
Cn1cc(-c2ccc(-c3cncc(Cl)c3N3CCC4(CCNC4=O)CC3)cc2)cn1	COLO 205	gene expression, microarray, item: HSPA1B mRNA	–	concentration not given, 2 h	reference: untreated cells	log2 fold change	2.07
Cn1c(CNC(=S)NCCCC[C@H](NS(=O)(=O)c2cccc(F)c2)C(=O)N[C@@H](Cc2c[nH]c3ccccc23)C(=O)NC2CCC2)n[nH]c1=S	SIRT5	enzyme activity, inhibitor	–	100 µM	–	inhibition	14%
CN(C(=O)n1cnc(-c2ccc[n+]([O-])c2)c1)C1CCCCC1	Glutamate receptor ionotropic, NMDA 1, glycine site (Grin1, Rattus norvegicus, UniProt P35439)	binding	–	10 µM, glycine site, strychnine-insensitive	–	inhibition	9.94%

SMILES	target or system	test	test system	setting	scale	measurement	value
COc1ccc2c(c1OC)CN1CCc3cc4c(cc3C1=C2)OCO4	HPGDS (Homo sapiens, UniProt O60760)	enzyme activity, inhibitor, fluorescence polarisation	–	100 µM	–	inhibition	100%
COc1cc2c3c(c1OC)-c1cc4c(cc1CC3N(C)CC2c1ccccc1)OCO4 (centres unmarked)	sigma-2	binding, radioligand binding	–	concentration not given	–	inhibition	< 50%
Cc1cc(-c2ccccc2)nc(SCC(=O)Nc2cccnc2)c1C#N	NT5E membrane-bound form	CD73 activity, inhibitor, malachite green phosphate	MDA-MB-231	100 µM, added: 200 µM AMP	–	inhibition	-72 ± 3%
Fc1ccc(-c2c(-c3ccncc3)ncn2-c2ccc(-c3ccccc3)cc2)cc1	CSNK1E	inhibitor	–	1 µM	–	inhibition	74%
Cn1cc(-c2cnc3ccc(NC(=O)Nc4ccc(F)c(Br)c4)cc3n2)cn1	MAP3K7 (Homo sapiens, UniProt O43318)	kinase binding, KiNativ profiling, item: Lys2 peptide	PANC-1 lysate	2.5 µM	–	inhibition	7.7%
CCOC(=O)c1ccc(NC(=O)CSc2nc(C)cc(C)c2C#N)cc1	NT5E membrane-bound form	CD73 activity, inhibitor, malachite green phosphate	MDA-MB-231	100 µM, added: 200 µM AMP	–	inhibition	20 ± 4%
c1cncc(OC[C@H]2CN(CCN3CCc4ccccc43)CCO2)c1	HTR6	radioligand binding	–	concentration not given, added: [3H]LSD	–	inhibition	8.1%
O=C(NO)c1ccc(CN2CCCCc3ccccc32)c(F)c1	HTR6	radioligand binding, radioligand displacement	–	10 µM, mean of replicates	–	inhibition	27.8%
CCN1CCN(Cc2ccc(NC(=O)c3ccc(C)c(/C=C/c4cnc5[nH]ccc5c4OC)c3)cc2C(F)(F)F)CC1	ULK1	–	A-375	concentration not given	–	inhibition	-25.7%
O=C(Nc1cccc2c(=O)cc(-c3nnn[nH]3)oc12)c1ccc(OCCCCc2ccccc2)cc1	Volume-regulated anion channel subunit LRRC8C, part LRRC8A IL1 chimera (LRRC8C, Homo sapiens, UniProt Q8TDW0, L136K)	ion current, inhibitor, whole-cell patch clamp	HCT LRRC8-/- cells	10 µM, +100 mV	–	inhibition	84.8% and 93% and 86.3% and 93.3%
CCC1(c2ccccc2)NC(=O)NC1=O (centres unmarked)	GABA-A receptor alpha-1/beta-3, with gamma-2 subunit (GABRA1/GABRB3, Homo sapiens, UniProt P14867+P28472)	etomidate-enhanced [3H]muscimol binding	–	300 µM, α1β3γ2 receptor	–	inhibition	38%
COc1cc(CNC(=O)c2sc3nc(C)cc(C)c3c2N)cc(OC)c1OC	NT5E membrane-bound form	CD73 activity, inhibitor, malachite green phosphate	MDA-MB-231	100 µM, added: 200 µM AMP	–	inhibition	-9 ± 14%
CCN(Cc1ccccc1C(F)(F)F)C(=O)C1CCN(S(=O)(=O)c2ccc3[nH]ncc3c2)CC1	rat L-type calcium channel	radioligand binding	–	10 µM, benzothiazepine site	–	inhibition	37%
COc1cc(OS(C)(=O)=O)c2c(c1)[C@H]1O[C@@H]1C[C@H](OS(C)(=O)=O)[C@H](OS(C)(=O)=O)C(=O)/C=C/C[C@H](C)OC2=O	Mitogen-activated protein kinase kinase kinase 7, with TAB1 (MAP3K7, Homo sapiens, UniProt O43318)	kinase activity, Kinase-Glo luminescence	–	concentration not given	–	inhibition	inactive
COc1cc2c(cc1OC)C(=O)N(CCCCN1CCN(c3ccccc3OC)CC1)C2	HTR6	radioligand binding	–	concentration not given, added: [3H]LSD	–	inhibition	11.3%
Cc1ccc2nc(NC(=O)c3ccccc3)[nH]c2c1	ADORA2A	–	–	30 µM	–	inhibition	17 ± 1%
COc1ccc2c(c1)C(=O)N(CCCN1CCN(c3ccccc3OC)CC1)C2	HTR6	radioligand binding	–	concentration not given, added: [3H]LSD	–	inhibition	-11.3%
CN1CCN(c2cc(-c3ccncc3)c(-c3ccc4ccccc4c3)nn2)CC1	PTGFR (Homo sapiens, UniProt P43088)	antagonist, FLIPR	–	10 µM	–	inhibition	3.1%
COc1cccc(OC[C@H]2CN(CCN3CCc4ccccc43)CCO2)c1	HTR6	radioligand binding	–	concentration not given, added: [3H]LSD	–	inhibition	11.6%
COC(=O)CNC(=O)CCSc1nc(C)cc(C)c1C#N	NT5E membrane-bound form	CD73 activity, inhibitor, malachite green phosphate	MDA-MB-231	100 µM, added: 200 µM AMP	–	inhibition	31 ± 4%
O=C(CN1CCO[C@@H](COc2cccnc2)C1)N1CCc2ccccc21	HTR6	radioligand binding	–	concentration not given, added: [3H]LSD	–	inhibition	21.4%
Cc1cccc(-c2nc(C(O)C3=CCCCC3)[nH]c2-c2ccncc2)c1 (centres unmarked)	CSNK1E	kinase activity	–	1 µM	–	inhibition	22%

Some of these lines once more:
SMILES	target or system	test	test system	setting	scale	measurement	value
CC[C@@H]1[C@H](F)C(=O)N[C@@H]1COc1nccc2cc(C(N)=O)c(OC)cc12	ULK1	ATP-site probe binding, ActivX profiling	THP-1 cell lysate	0.04 mM, Lys1 site	–	inhibition	4.1%
COc1nc(NCc2cn(-c3ccc(C(=O)Nc4ccc(C(F)(F)F)cc4)cc3)nn2)nc(OC)n1	Collagenase 3 (MMP13, Homo sapiens, UniProt P45452)	inhibitor	–	0.1 µM	–	inhibition	21.9 ± 0.786%
CC/C(=N\NC(=O)NCc1cccc(O)c1)c1ccc(O)c(C)c1O	MAP3K3 (Homo sapiens, UniProt Q99759)	kinase activity	–	0.1 µM	–	inhibition	3.7%
NC/C(=C\F)COc1cccc(Cn2c(=S)[nH]c(=O)c3[nH]cnc32)c1	Amine oxidase copper-containing 3 (Canis lupus familiaris, UniProt A0A8I3MYY3)	inhibitor	dog adipose tissue	0.0014 µM	–	inhibition	31.7%
